{"data": "Measured values of several laboratories", "lacI N125C": "lacI (Escherichia coli, UniProt P03023, N125C)", "ampC": "Beta-lactamase (ampC, Escherichia coli K-12, UniProt P00811)", "HLA class I histocompatibility antigen, A alpha chain allele A*24:02": "HLA class I histocompatibility antigen, A alpha chain, allele A*24:02 (Homo sapiens, UniProt P04439)", "note": "Protocols differ between the studies behind these lines. Several values in a cell are separate wells, animals, samples, runs or records. Numbers after ± are the reported error.", "UniProt P00811, sequence (whole entry, looked up)": "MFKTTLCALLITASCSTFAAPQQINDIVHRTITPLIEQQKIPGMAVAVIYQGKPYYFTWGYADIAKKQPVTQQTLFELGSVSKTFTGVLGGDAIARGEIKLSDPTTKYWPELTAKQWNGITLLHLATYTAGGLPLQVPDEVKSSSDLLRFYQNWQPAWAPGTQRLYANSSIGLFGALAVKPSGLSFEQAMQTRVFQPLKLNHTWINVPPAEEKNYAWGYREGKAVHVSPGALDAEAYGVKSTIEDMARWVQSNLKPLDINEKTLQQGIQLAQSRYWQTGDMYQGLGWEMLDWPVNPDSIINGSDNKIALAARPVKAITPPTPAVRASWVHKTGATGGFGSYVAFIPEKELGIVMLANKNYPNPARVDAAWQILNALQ", "UniProt P35372, sequence (whole entry, looked up)": "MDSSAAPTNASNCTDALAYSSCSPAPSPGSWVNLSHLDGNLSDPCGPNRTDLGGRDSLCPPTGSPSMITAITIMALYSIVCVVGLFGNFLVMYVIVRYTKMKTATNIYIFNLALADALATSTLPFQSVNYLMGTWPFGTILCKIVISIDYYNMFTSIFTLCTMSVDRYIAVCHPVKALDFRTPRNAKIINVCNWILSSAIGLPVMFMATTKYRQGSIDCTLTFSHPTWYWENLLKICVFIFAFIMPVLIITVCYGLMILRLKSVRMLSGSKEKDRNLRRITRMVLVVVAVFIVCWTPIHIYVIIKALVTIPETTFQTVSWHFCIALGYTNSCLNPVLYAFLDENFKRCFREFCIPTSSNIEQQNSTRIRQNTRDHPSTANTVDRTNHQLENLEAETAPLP", "UniProt P63096, sequence (whole entry, looked up)": "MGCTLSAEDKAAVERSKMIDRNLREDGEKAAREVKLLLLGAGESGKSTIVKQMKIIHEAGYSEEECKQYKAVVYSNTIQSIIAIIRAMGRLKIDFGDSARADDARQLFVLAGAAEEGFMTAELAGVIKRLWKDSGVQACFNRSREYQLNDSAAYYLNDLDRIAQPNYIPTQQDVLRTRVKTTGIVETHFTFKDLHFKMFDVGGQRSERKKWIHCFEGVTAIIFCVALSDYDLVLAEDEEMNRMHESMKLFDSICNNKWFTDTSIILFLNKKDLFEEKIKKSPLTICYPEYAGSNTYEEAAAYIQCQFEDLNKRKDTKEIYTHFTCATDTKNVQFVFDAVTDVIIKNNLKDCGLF", "UniProt P03023, sequence (whole entry, unmodified, looked up)": "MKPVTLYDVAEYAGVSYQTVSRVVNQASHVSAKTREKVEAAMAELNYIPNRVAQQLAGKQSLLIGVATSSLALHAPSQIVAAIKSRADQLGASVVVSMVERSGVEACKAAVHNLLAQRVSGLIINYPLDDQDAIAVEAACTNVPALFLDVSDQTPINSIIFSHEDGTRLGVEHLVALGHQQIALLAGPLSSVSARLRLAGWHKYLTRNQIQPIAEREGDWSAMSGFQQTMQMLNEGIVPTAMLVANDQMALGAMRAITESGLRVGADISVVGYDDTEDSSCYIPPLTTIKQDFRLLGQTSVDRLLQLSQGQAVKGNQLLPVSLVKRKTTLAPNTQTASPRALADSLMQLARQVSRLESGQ", "UniProt P17812, sequence (whole entry, looked up)": "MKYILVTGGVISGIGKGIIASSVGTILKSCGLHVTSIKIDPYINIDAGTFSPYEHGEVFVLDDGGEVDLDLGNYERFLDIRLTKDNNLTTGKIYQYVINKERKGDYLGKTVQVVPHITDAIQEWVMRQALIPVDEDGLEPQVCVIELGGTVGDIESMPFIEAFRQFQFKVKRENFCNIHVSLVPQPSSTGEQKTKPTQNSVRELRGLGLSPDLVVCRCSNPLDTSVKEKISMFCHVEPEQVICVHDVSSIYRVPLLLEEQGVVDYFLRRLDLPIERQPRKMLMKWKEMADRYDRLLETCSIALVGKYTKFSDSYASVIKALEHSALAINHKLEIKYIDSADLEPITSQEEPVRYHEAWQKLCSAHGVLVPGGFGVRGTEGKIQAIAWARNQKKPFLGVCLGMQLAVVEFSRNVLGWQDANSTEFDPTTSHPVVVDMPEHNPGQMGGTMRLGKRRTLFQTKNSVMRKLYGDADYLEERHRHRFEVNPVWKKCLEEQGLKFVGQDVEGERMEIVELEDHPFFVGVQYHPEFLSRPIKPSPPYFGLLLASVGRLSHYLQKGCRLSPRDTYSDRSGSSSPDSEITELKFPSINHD", "UniProt P97612, sequence (whole entry, looked up)": "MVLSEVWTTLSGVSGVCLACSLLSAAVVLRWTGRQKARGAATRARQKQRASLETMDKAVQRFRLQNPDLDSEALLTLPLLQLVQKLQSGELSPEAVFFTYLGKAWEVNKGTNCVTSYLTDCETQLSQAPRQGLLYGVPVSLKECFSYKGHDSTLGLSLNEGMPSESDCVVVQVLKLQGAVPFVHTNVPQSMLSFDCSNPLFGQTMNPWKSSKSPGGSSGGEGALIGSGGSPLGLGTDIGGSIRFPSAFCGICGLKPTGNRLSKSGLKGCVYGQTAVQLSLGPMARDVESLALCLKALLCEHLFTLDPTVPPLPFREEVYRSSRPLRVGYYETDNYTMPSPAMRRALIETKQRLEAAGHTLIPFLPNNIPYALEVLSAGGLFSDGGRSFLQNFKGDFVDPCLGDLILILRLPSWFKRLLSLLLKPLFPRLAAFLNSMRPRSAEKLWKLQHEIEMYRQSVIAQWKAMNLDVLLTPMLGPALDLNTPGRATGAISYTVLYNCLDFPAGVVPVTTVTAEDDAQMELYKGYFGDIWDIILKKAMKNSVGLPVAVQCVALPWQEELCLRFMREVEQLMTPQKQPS", "UniProt P43378, sequence (whole entry, looked up)": "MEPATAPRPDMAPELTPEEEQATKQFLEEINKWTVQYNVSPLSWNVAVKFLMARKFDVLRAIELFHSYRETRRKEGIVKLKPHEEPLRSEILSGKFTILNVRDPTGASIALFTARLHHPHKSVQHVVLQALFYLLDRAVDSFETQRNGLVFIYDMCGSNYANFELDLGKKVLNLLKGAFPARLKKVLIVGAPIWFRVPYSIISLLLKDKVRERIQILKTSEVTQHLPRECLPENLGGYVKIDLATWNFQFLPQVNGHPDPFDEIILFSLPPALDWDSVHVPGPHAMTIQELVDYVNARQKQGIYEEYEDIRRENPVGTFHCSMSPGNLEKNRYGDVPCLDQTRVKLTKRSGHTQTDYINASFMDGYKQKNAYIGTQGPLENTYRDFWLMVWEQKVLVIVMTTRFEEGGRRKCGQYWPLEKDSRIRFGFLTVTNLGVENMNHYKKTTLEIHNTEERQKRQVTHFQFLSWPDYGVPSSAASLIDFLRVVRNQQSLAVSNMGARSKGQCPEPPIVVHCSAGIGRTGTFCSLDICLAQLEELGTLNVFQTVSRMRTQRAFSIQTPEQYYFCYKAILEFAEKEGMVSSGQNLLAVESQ", "UniProt O14804, sequence (whole entry, looked up)": "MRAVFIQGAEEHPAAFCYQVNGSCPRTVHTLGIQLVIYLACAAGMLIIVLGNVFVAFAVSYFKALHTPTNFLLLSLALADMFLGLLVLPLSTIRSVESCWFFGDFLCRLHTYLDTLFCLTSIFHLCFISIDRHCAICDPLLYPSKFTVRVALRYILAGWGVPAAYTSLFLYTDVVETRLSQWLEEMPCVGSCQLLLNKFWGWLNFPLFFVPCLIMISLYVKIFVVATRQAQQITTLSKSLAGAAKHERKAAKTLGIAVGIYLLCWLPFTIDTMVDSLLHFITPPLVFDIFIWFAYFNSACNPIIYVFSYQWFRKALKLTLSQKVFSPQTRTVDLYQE", "UniProt P51451, sequence (whole entry, looked up)": "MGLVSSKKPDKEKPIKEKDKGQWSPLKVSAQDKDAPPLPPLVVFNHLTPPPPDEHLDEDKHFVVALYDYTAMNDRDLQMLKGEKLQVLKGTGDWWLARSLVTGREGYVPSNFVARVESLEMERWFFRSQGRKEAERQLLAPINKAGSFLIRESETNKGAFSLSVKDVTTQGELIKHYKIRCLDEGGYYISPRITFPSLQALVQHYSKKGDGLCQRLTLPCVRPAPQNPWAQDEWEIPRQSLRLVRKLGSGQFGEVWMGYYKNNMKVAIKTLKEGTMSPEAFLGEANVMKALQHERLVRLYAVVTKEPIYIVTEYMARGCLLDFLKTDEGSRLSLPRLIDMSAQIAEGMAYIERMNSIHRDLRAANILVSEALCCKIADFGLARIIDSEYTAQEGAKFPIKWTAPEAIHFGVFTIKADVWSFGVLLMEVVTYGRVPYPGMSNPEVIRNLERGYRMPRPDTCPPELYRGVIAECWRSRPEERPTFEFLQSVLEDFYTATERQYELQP"}
{"Compound": "OC[C@H]1O[C@@H](OCCc2ccccc2)[C@H](O)[C@@H](O)[C@H]1O", "target or system": "lacI N125C", "test": "operator DNA release, nitrocellulose filter binding", "setting": "together with: O1 operator DNA", "quantity": "EC50", "result": "180000 ± 12000 nM"}
{"Compound": "COC(=O)C(CC1CC=CCC1)NS(=O)(=O)c1cccc(Cl)c1O (stereo not drawn)", "target or system": "ampC", "quantity": "Ki", "result": "137000 nM"}
{"Compound": "CC(C)C[C@H](NC(=O)C[C@H](O)[C@H](CC(C)C)NC(=O)[C@H](Cc1c[nH]cn1)NC(=O)CNC(=O)[C@@H](NC(=O)[C@H](C)NC(=O)[C@H](Cc1c[nH]c2ccccc12)NC(=O)[C@H](CCC(N)=O)NC(=O)[C@@H](Cc1ccccc1)NC(=O)CCNC(=O)CCSc1nnc(NCCC(=O)NCCC(=O)NCCCC[C@H](NC(=O)N[C@@H](CCC(=O)O)C(=O)O)C(=O)O)c2c1CCC1C(CC2)C1COC(=O)NCCNC(=O)CC[C@H](C(=O)O)N1CCN(CC(=O)O)CCN(CC(=O)O)CC1)C(C)C)C(N)=O (stereo partly drawn) [gallium-68 labelled]", "system": "athymic NMRI nude mouse, lung", "setting": "intravenous, 533 pmol, 2 h", "quantity": "tissue uptake", "result": "0.28 %ID/g"}
{"Compound": "C[C@H]1O[C@@H](Oc2ccccc2[N+](=O)[O-])[C@H](O)[C@@H](O)[C@H]1O", "target or system": "lacI N125C", "test": "operator DNA binding, nitrocellulose filter binding", "setting": "together with: O1 operator DNA", "quantity": "EC50", "result": "40000 ± 3800 nM"}
{"Compound": "COc1c(CCC[P+](c2ccccc2)(c2ccccc2)c2ccccc2)cc2c(c1OC)OCO2.[I-]", "target or system": "EKVX", "test": "SRB", "quantity": "GI50", "result": "-5.41 log M"}
{"Compound": "CCOc1ccc(NS(=O)(=O)c2cccc(Cl)c2O)c2ncccc12", "target or system": "ampC", "quantity": "Ki", "result": "18200 nM"}
{"Compound": "CC[C@H](C)[C@H](NC(=O)[C@@H](N)Cc1c[nH]cn1)C(=O)N[C@@H](Cc1ccccc1)C(=O)N[C@@H](CO)C(=O)N[C@@H](CCCNC(=N)N)C(=O)N1CCC[C@H]1C(=O)N[C@@H](CCSC)C(=O)N[C@H](C(=O)N[C@@H](Cc1ccccc1)C(=O)O)[C@@H](C)O", "target or system": "HLA class I histocompatibility antigen, A alpha chain allele A*24:02", "test": "binding", "quantity": "IC50", "result": "1840 nM"}
{"Compound": "COC(=O)C(Cc1ccsc1)NS(=O)(=O)c1cccc(Cl)c1O (stereo not drawn)", "target or system": "ampC", "quantity": "Ki", "result": "204000 nM"}
{"Compound": "CC(C)C[C@H](NC(=O)[C@H](CC(C)C)NC(=O)[C@H](CCCCN)NC(=O)c1ccc2c(c1)C(=O)OC21c2ccc(N(C)C)cc2Oc2cc(N(C)C)ccc21)C(=O)NCC(=O)N[C@@H](C)C(=O)N[C@@H](CCC(=O)O)C(=O)N[C@@H](CCC(=O)O)C(=O)N[C@@H](CCCCN)C(=O)N[C@@H](CCC(=O)O)C(=O)N[C@@H](Cc1ccc(OP(=O)(O)O)cc1)C(=O)N[C@@H](Cc1c[nH]cn1)C(=O)N[C@@H](C)C(=O)N[C@@H](CCC(=O)O)C(=O)NCC(=O)NCC(=O)N[C@@H](CCCCN)C(=O)N[C@H](C(=O)N[C@@H](CC(=O)O)C(=O)O)C(C)C", "target or system": "Tyrosine-protein kinase Blk, SH2 domain (BLK, Homo sapiens, UniProt P51451)", "test": "binding", "quantity": "Kd", "result": "1710 nM"}
{"Compound": "Nc1nc2c(ncn2[C@@H]2O[C@H](COP(=O)(O)OP(O)(O)=S)[C@@H](O)[C@H]2O)c(=O)[nH]1", "target or system": "OPRM1/GNAI1 (Homo sapiens, UniProt P35372+P63096)", "test": "MOR-Gi coupling", "system": "HEK293F", "setting": "ratio 1:5", "quantity": "IC50", "result": "33.9 nM and 43 nM and 40 nM"}
{"Compound": "CC(C)C[C@H](NC(=O)[C@@H](N)Cc1c[nH]cn1)C(=O)N[C@@H](Cc1ccccc1)C(=O)N1CCC[C@H]1C(=O)N[C@@H](CCCNC(=N)N)C(=O)N[C@H](C(=O)N[C@@H](Cc1c[nH]cn1)C(=O)N[C@@H](Cc1ccc(O)cc1)C(=O)N[C@@H](Cc1ccccc1)C(=O)O)[C@@H](C)O", "target or system": "HLA class I histocompatibility antigen, A alpha chain allele A*24:02", "test": "binding", "quantity": "IC50", "result": "736 nM"}
{"Compound": "O=C(O)C[C@H](NC(=O)[C@H](CC(=O)O)NC(=O)[C@H](CC(=O)O)NC(=O)[C@H](CC(=O)O)NC(=O)[C@H](CC(=O)O)NC(=O)[C@H](CC(=O)O)NC(=O)[C@H](CC(=O)O)NC(=O)[C@H](CC(=O)O)NC(=O)[C@H](CC(=O)O)NC(=O)[C@H](CC(=O)O)NC(=O)[C@H](CC(=O)O)NC(=O)[C@H](CCCCNC(=O)c1ccc(C(=O)NCCOCCOB2BBBBBB3BBBB3B2)cc1)NC(=O)CN1CCN(CC(=O)O)CCN(CC(=O)O)CCN(CC(=O)O)CC1)C(=O)O [gallium-67 labelled]", "system": "ddY male mice, lung", "setting": "intravenous, 37 kBq, 1 h", "quantity": "tissue uptake", "result": "0.48 %ID/g"}
{"Compound": "O=C(Nc1cnccc1Cl)N1CCN(Cc2ccc3c(c2)OC(F)(F)O3)CC1", "target or system": "Faah (Rattus norvegicus, UniProt P97612)", "test": "probe labelling, inhibitor, competitive ABPP with azido-FP probe", "system": "rat brain soluble fraction", "setting": "1 µM", "quantity": "inhibition", "result": "68.1%"}
{"Compound": "Oc1ccc2c3c1O[C@H]1[C@@H](O)CC[C@@]4(O)[C@@H](C2)N(CC2CCC2)CC[C@]314", "target or system": "TAAR5 (Homo sapiens, UniProt O14804)", "test": "β-arrestin recruitment, TANGO luminescence", "setting": "concentration not given", "scale": "baseline: basal luminescence", "quantity": "log2 fold change", "result": 0.495}
{"Compound": "CCCCCC(NS(=O)(=O)c1cccc(Cl)c1O)C(=O)OC (stereo not drawn)", "target or system": "ampC", "quantity": "Ki", "result": "76000 nM"}
{"Compound": "C[C@H]1CN(c2n[nH]c3nc(N[C@H]4CC[C@H](NS(=O)(=O)CCC(F)(F)F)CC4)ncc23)CCO1", "target or system": "CTP synthase 1 (Homo sapiens, UniProt P17812)", "test": "biochemical", "quantity": "IC50", "result": "≥ 20000 nM"}
{"Compound": "COc1cc(Nc2ncc(F)c(Nc3ccc4c(n3)NC(=O)C(C)(C)O4)n2)cc(OC)c1OC", "target or system": "PTPN9 (Homo sapiens, UniProt P43378)", "setting": "MEG2", "quantity": "IC50", "result": "> 10000 nM"}
{"Compound": "CSCC[C@H](NC(=O)[C@H](CCC(N)=O)NC(=O)[C@@H](N)CCCCN)C(=O)NCC(=O)N[C@@H](Cc1c[nH]cn1)C(=O)N[C@@H](CC(C)C)C(=O)N[C@@H](CC(C)C)C(=O)N[C@H](C(=O)N[C@@H](Cc1ccccc1)C(=O)O)[C@@H](C)O", "target or system": "HLA class I histocompatibility antigen, A alpha chain allele A*24:02", "test": "binding", "quantity": "IC50", "result": "719 nM"}
{"Compound": "CC[C@H](C)[C@@H]1NC(=O)[C@@H]2CCCN2C(=O)[C@H](CC(C)C)NC(=O)[C@H](CC(C)C)NC(=O)CNC(=O)[C@@H](NC(=O)[C@@H](NC(=O)[C@H](CC(=O)O)NC(=O)CNC(=O)[C@@H](NC(=O)[C@H](C)NC(=O)CNC(=O)[C@H](CCCCN)NC(=O)[C@H](CC(C)C)NC(=O)[C@H](CC(C)C)NC(=O)[C@H](CCCCN)NC(=O)CNC(=O)[C@@H](NC(=O)[C@@H](N)CC(C)C)C(C)C)C(C)C)C(C)C)CSSC[C@@H](C(=O)O)NC1=O", "test": "RNA-seq, measured: Dusp1", "system": "mouse, traumatic brain injury model, frontal cortex and hippocampus", "setting": "dose not given", "scale": "baseline: TBI alone", "quantity": "log2 fold change", "result": -2.36}
{"Compound": "CC[C@H](C)[C@H](NC(=O)[C@@H](N)CCCCN)C(=O)N[C@@H](Cc1ccccc1)C(=O)N1CCC[C@H]1C(=O)N[C@@H](CCCCN)C(=O)N1CCC[C@H]1C(=O)N[C@@H](CC(C)C)C(=O)N[C@@H](Cc1ccc(O)cc1)C(=O)N[C@@H](CCSC)C(=O)O", "target or system": "HLA class I histocompatibility antigen, A alpha chain, allele A*02:01 (Homo sapiens, UniProt P04439)", "test": "binding", "quantity": "IC50", "result": "775 nM"}
{"Compound": "CO[C@@H]1[C@@H](OC(N)=O)[C@@H](O)[C@H](Oc2ccc3c(O)c(NC(=O)c4ccc(O)c(CC=C(C)C)c4)c(=O)oc3c2C)OC1(C)C", "target or system": "Multidrug resistance operon repressor (mexR, Pseudomonas aeruginosa, UniProt P52003, C62A/M61A/Q60A)", "quantity": "Kd", "result": "527000 nM"}
{"Compound": "CSCC[C@H](NC(=O)[C@@H](N)CCCNC(=N)N)C(=O)N[C@@H](Cc1ccc(O)cc1)C(=O)N[C@@H](CC(N)=O)C(=O)N1CCC[C@H]1C(=O)N[C@H](C(=O)N[C@@H](CC(C)C)C(=O)N[C@@H](CCCNC(=N)N)C(=O)N[C@@H](Cc1ccccc1)C(=O)O)C(C)C", "target or system": "HLA class I histocompatibility antigen, A alpha chain allele A*24:02", "test": "binding", "quantity": "IC50", "result": "1610 nM"}
{"Compound": "CC[C@H](C)[C@H](NC(=O)[C@H](CC(=O)O)NC(=O)[C@H](C)NC(=O)[C@H](Cc1ccc(OP(=O)(O)O)cc1)NC(=O)[C@H](CCCCN)NC(=O)[C@@H](NC(=O)[C@H](CC(=O)O)NC(=O)CNC(=O)[C@H](CCCCN)NC(=O)[C@H](CCSC)NC(=O)[C@H](CC(=O)O)NC(=O)[C@H](CC(C)C)NC(=O)[C@H](CCSC)NC(=O)c1ccc2c(c1)C(=O)OC21c2ccc(N(C)C)cc2Oc2cc(N(C)C)ccc21)C(C)C)C(=O)N[C@@H](CCC(=O)O)C(=O)N[C@@H](CO)C(=O)N[C@@H](CO)C(=O)N[C@@H](CC(N)=O)C(=O)N[C@@H](CC(=O)O)C(=O)O", "target or system": "Phosphatidylinositol 3-kinase regulatory subunit gamma, SH2 domain (Homo sapiens, UniProt Q92569)", "test": "binding", "quantity": "Kd", "result": "580 nM"}
{"Compound": "CC[C@H](C)[C@H](NC(=O)[C@H](C)NC(=O)[C@H](CCCCN)NC(=O)[C@H](CC(C)C)NC(=O)[C@H](C)NC(=O)[C@@H](NC(=O)[C@H](Cc1c[nH]cn1)NC(=O)[C@H](CC(C)C)NC(=O)[C@@H](NC(=O)[C@@H](NC(=O)[C@H](CCCCN)NC(=O)[C@H](C)NC(=O)[C@H](C)NC(=O)[C@H](CO)NC(=O)[C@H](CCCCN)NC(=O)[C@H](Cc1ccccc1)NC(=O)[C@@H](NC(=O)[C@H](CCCCN)NC(=O)[C@H](CC(C)C)NC(=O)[C@H](Cc1ccccc1)NC(=O)[C@H](CO)NC(=O)[C@H](CCCCN)NC(=O)[C@H](Cc1c[nH]c2ccccc12)NC(=O)[C@H](CCCCN)NC(C)=O)[C@@H](C)O)[C@@H](C)O)C(C)C)[C@@H](C)O)C(=O)N[C@@H](CO)C(=O)N[C@@H](CO)C(N)=O", "target or system": "Pseudomonas aeruginosa", "system": "IPM-R", "setting": "81 strains", "quantity": "MBC50", "result": "16 µg/mL"}
{"note": "For quick reference, copied from above:"}
{"Compound": "CC[C@H](C)[C@H](NC(=O)[C@@H](N)Cc1c[nH]cn1)C(=O)N[C@@H](Cc1ccccc1)C(=O)N[C@@H](CO)C(=O)N[C@@H](CCCNC(=N)N)C(=O)N1CCC[C@H]1C(=O)N[C@@H](CCSC)C(=O)N[C@H](C(=O)N[C@@H](Cc1ccccc1)C(=O)O)[C@@H](C)O", "target or system": "HLA class I histocompatibility antigen, A alpha chain allele A*24:02", "test": "binding", "quantity": "IC50", "result": "1840 nM"}
{"Compound": "COc1cc(Nc2ncc(F)c(Nc3ccc4c(n3)NC(=O)C(C)(C)O4)n2)cc(OC)c1OC", "target or system": "PTPN9 (Homo sapiens, UniProt P43378)", "setting": "MEG2", "quantity": "IC50", "result": "> 10000 nM"}
